# Measured values from different studies.
# A part holds a random share of what one study measured.

# Set 1
# Target: Interferon regulatory factor 5, full length, phosphomimetic (IRF5, Homo sapiens, UniProt Q13568-2, residues 1-514, K96S/S451D/S453D/S456D/S462D)
# Method: protein-binding microarray
# Molecule type: double-stranded DNA, one strand shown
# Sample: in vitro
# Tested at: 250 nM
# Setting: 60-bp whole probe
# With: salmon DNA 0.4 mg/ml
# Reference: random background probes
# Direction: higher = stronger binding
# Shared flanks, not repeated: GCCTAGCAC … GTCTTGATTCGCTTGACGCTGCTG
Oligonucleotide,log fluorescence [z-score]
TCAGAAATCGGTGATCAGACTGTGCTA,0.391
GACGAACTGAGTATTGAGACGTGCTAG,-0.0894
CCAGGAAAAGGGATTCAGTTGTGCTAG,-0.318
CTTTAACTCATTCTCTGTTTGTGCTAG,0.896
AACGGTTTCGGTTCCGGGACGTGCTAG,9.81
TTAGGTTTCGGGACCGGGTTAGTGCTA,6.33
GAGGGTATCGACTTTCGGGACGTGCTA,5.85
TTAGAACTGGAGTTTCGATTAGTGCTA,8.06
TCACTTTTCGCTTTCTTACTGTGCTAG,3.55
GACGGTTTCGGGTTTCGAGACGTGCTA,8.02
TTAGGTATCTGGACTGGGTTAGTGCTA,-0.0581
TTTCTTTTGCTTGTTCTTAGCGTGCTA,5.47
TCATCTCTGAAGACTCTCACTGTGCTA,0.482
GACGGTTTCCTTCCCCTGACGTGCTAG,0.643
TCATAACTTATTCTCTAACTGTGCTAG,0.86
TTAGGTATCGGTCACGGTTAGTGCTAG,7.04
GGCGGTATCGGTTTCGGGACGTGCTAG,8.39
GACGGACTGGGGATTCGGGACGTGCTA,-0.641

# Set 2
# Target: Histone acetyltransferase KAT6A, winged helix 2, GST fusion (KAT6A, Homo sapiens, UniProt Q92794, residues 85-181)
# Method: protein binding microarray
# Molecule type: double-stranded DNA, one strand shown
# Sample: in vitro
# Tested at: not given
# Setting: 8-mer, flanks averaged, mean of 2 arrays, mostly near background
# Reference: not given
# Direction: higher = stronger binding
# Construct (chain): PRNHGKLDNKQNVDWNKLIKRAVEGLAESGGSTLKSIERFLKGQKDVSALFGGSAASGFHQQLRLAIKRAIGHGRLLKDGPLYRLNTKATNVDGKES
Oligonucleotide,E-score
ATGCGCCC,0.188
GTGTGATA,0.0842
CAGTTTAG,-0.0644
TCCGTTAA,0.0234
GATTGGTA,-0.00861
AAATAGCA,0.0959
TTCTCCAA,0.169
CCTGGGCG,0.103
AATCAGGA,-0.05
GGCCGTAC,0.137
ACGGTAAT,-0.241
GCACTTCC,-0.218
AATCAGCA,0.196
TCGTGTCA,0.0224
GGTTCCCA,0.0502
CTCTAGTA,-0.0287
CTGAGCAG,0.0562
GCTGGACA,-0.0299
GATCCTCC,-0.14
CACACAGC,0.027
CTCTTCCC,-0.0999
ATCCACTC,0.0501
TCGACTAA,0.0843
CGCGTAAC,-0.0996
CGGTAGCC,0.143

# Set 3
# Target: RNA binding protein fox-1 homolog 2, RRM domain, GST-SBP tag (RBFOX2, Homo sapiens, UniProt O43251-10, residues 100-194)
# Method: RNA Bind-n-Seq
# Molecule type: RNA
# Sample: in vitro
# Tested at: 365 nM
# Setting: natural RNA segment, single round, ends assumed
# Reference: no-protein control
# Direction: higher = stronger binding
# Shared flanks, not repeated: GGGAGUUCUACAGUCCGACGAUC … UGGAAUUCUCGGGUGCCAA
# Target sequence (chain): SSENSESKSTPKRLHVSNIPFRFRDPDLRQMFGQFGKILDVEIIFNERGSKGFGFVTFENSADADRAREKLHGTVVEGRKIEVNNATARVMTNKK
Oligonucleotide,RBNS enrichment (R)
GGGAGCUAACACCAAGCAACUGGUUCCGUGGGGGAAGGUUUUAGGGAGCUCAGACUGCUGCUUUCAUAGGCAAAGUGUGCCCAUGGGGGCCAGUCAUGGGAACAUGUCAA,0.353
ACUCUGAACCAGUGAACAUUUUGGAUGUUUCCGUGUUCUCCUGUGUCAUCUCUACUGGGCCAUAGGACCGGGCAAACCUACCUUAAAAUAGGCAGAGGAAAGUUUCAUGA,0.275
CCCACCACAGGGCAGCUGCGUUUUAGGAAGAGCAAAUGAAACUCCACACCAUUCUUCUAGAUCUCUGGUGUUCUCUUUGGUUUCAUUUUUUUAAAAAAUUACCUUCUUUG,0.332
UGGAUCCCCCUACUGCUCCCAGGAAUUGGGCUCCUGACAGCAGUCUGCUACCACAACCCCAGGCGGGUGUCAACACCAGCAAAUGCUGUGUUUGCAGCAUGCCCAAGAUG,0.526
UAAAUUCAGAAGAGUGAUUCUAAAUCUAAAGAAUCAUAUCAUUAAUUAUGUGACAUUGAAACCUGCUGCUGCCGUGAUCUUGAGGAGAGUACAGAUGGGGAGGAAGGUUC,0.999
GAAUCCUCCCCUUUCUGGCACAAGACAGAAAGCAAGCAGCUGAGUAACUGGAGACCAGUGGAAAUGAGUAUCAUAGAUGGUCAGGCUGCAGAUGGAUCCCAGAACCUGCA,3.88
GGUGUCCAGAGGUGUGAAAUAUACCAUGUAAUCUCACACAGGUGGACUGUGGAACCGUUUUUAUGGAUUUUGCCCCUGCUUGCUUUCAUCCUGUAACCUAGCCUGUAUUA,5.85
UGUGCCAAGCCUUGUCCACUGGAAUGCAUCCAGAACAGCAGCACCAUCUAGCGGCAGGUUGAGGAAAACUAUGGUCUCUGCUAGGGAAAACCUUAUCCAACUCUUCAAGU,0.323
CACUUACUGGGCCCCGGUCGAAAUUGUGAAAAAUACCCUAAUGAUUAAUAAGGAAUUUUAAUCUAGAAUUUUGAUCUUUGUAAAAAAAGGGGAAAAAGGGUAGUUUGUUU,0.503
GCCUCCGACAGUGUCCUCGCUCUACCUCUGACCUCUCCGGAGGUUCCGCUGCCUCCAAGCCGGACUUAGGGCUUCAAGAGGCGGGCGUGCCCUCUGGAGUCCCCUACCAU,0.279
ACCUCUUUUUCUUUAUAAAUUACCCAGUCUUGGUUAUGUCUUUAUCAGCACUGUGAAAAUGAACCUAUACAGUAAAUUGGUACCAGUAGAGUGGGGCGCUGCUGUAAAUA,0.588
AAUCCCCUACUGGGGCCAUUUCAAUGGGGUAGUUUUUGGAUUUUUUUCCCCACUCACUUUUUAUUUUUUAAUGAUAAUGGAGAUGUCUGGACCCUUCCUCACCCCACCUG,0.501

# Set 4
# Target: RING finger protein unkempt homolog, zinc fingers 1-6, GST-SBP tag (UNK, Homo sapiens, UniProt Q9C0B0, residues 30-357)
# Method: RNA Bind-n-Seq
# Molecule type: RNA
# Sample: in vitro
# Tested at: not given
# Setting: RNA with constant flanks, human and mouse sites, ends assumed
# Reference: input RNA pool
# Direction: higher = stronger binding
# Shared flanks, not repeated: GGGAGUUCUACAGUCCGACGAUC … CAACAGAGGAUUGAGCAUCA
# Construct (chain): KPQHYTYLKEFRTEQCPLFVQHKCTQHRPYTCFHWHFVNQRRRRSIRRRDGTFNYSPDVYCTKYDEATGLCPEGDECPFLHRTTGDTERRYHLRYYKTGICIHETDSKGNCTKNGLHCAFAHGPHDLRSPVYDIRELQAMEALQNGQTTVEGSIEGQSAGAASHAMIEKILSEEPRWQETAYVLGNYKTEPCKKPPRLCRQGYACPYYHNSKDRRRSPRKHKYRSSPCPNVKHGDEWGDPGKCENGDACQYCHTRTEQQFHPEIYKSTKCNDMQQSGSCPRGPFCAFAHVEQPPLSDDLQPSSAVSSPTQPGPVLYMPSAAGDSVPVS
Oligonucleotide,bound/input enrichment [ratio]
GAAGAGGUCCUCGAUCAUGGUGUUAGAAUUGACUGGAUAGUAACAGGUGGUCUGGUGGAUAGCGGGGAGCAUGGCUCAGCACCAGAGCAGAGGCCCAGCCAGCCCUCUGCAGCCCAAACG,0.264
CCCCCAACUGCCAAUGAGAUGGCUGACAUUCAGGUUUCAGCAGCUGCCGCUAGGCCUAAGUCAGCCUUUAAAGUCCAGAAUGCCACCACAAAAGGCCCAAAUGGUGUCUAUGAUUUCUCU,0.562
AGAACAUUCUGCUAUCUGCUUCAGAAGGACGAAGGUGGUUGUGAUUUUUAUCAUUCACUACUCUUGAUGUGUGGUUUUUGAGACAAGGUCUUAUUGCGUAGACUCACUGUGUAGCCAAGA,0.208
UAUGUAGAAGAUUUAGAUACUAAGCCUCAAGAGACGUCUUUCCUCUCAUUUACGGUCUUCCUGCAUAUUUAAAAUUUCUAAUACGGUAGACAGAGUCGGUGUCUUUGAAGCUGUUAAUCA,1.32
GUCCAGCGUAAGAGGGAGCUGUGGCCAAGAGAGAAGGAGGGUCAGCGCCAGGAGCUAGAAGAAUUUAAGCAGAAGAUCCGGAAGCAGAAAGAAGAGAGACUUCUUCAAGCUGCCCAGCAG,0.521
GUGACAGACAUUAAAAUUUACCCUCAGAAAAGAACUGUAGCAGUGACAAUAAUCCCUUCUAUAGUGAAUGCCAAUCAGAUAAAAGAGCUGGUUCCAGAACUCAGUUUAGAUACUGGGACA,0.396
AAUCGGAAGAAGCUUUCAGAGCUGUUAAGGUACUACACAUCUGCCUCUGGUGAUGAGAUGGUUUCUCUCAAGGACUACUGCACCAGAAUGAAGGAGAACCAGAAACAUAUCUAUUAUAUC,0.112
CGAAGUAAGAAAGCAAACCUAGGCAAGAAUGCAAGUGUGAAUGCGCACCAUGGACCAGCACUAGAAGCUGUGGAGACCACUGUGCCCAAGCAAGGACAAAACUUAUGGUUCCUGUGUGAC,0.252
GCUAUAGUGACUCCAAAUAUUGAACCCUGUGCUUCACAGUCAUCUCAUCCUAAGGGAGAAUUGGUGCCAGAUGUCAGAAUUUCUACAAUUCAUGAUAUUCUUCAUAGUCAAGGAAAUAAC,0.385
GACAAAGAGGCUCUGACAGAGGAGAAGUGCCUCCCACGUCAGAACCGUUACGAUGGGCAGGUAGCUGUAUUUGGGUCAGACUUUCAGGAGAAGCUGAGCAAGCAAAAGUACUUCCUGGUG,0.0612
CAUUCGAAGGUUAAUGAUGAUUGUGAUGUUUAGGAAUGUUUGUCUCAGCCACAGUUCCUUCAUAGCUUUUCCAAAAUGAAUUGGGAAAAAAAAAUCGUAUAGCAGUCUUAAAGCUUAGUA,2.51

# Set 5
# Target: Sal-like protein 4, full length isoform A (SALL4, Homo sapiens, UniProt Q9UJQ4, residues 1-1053)
# Sequence of UniProt Q9UJQ4 (whole entry, looked up): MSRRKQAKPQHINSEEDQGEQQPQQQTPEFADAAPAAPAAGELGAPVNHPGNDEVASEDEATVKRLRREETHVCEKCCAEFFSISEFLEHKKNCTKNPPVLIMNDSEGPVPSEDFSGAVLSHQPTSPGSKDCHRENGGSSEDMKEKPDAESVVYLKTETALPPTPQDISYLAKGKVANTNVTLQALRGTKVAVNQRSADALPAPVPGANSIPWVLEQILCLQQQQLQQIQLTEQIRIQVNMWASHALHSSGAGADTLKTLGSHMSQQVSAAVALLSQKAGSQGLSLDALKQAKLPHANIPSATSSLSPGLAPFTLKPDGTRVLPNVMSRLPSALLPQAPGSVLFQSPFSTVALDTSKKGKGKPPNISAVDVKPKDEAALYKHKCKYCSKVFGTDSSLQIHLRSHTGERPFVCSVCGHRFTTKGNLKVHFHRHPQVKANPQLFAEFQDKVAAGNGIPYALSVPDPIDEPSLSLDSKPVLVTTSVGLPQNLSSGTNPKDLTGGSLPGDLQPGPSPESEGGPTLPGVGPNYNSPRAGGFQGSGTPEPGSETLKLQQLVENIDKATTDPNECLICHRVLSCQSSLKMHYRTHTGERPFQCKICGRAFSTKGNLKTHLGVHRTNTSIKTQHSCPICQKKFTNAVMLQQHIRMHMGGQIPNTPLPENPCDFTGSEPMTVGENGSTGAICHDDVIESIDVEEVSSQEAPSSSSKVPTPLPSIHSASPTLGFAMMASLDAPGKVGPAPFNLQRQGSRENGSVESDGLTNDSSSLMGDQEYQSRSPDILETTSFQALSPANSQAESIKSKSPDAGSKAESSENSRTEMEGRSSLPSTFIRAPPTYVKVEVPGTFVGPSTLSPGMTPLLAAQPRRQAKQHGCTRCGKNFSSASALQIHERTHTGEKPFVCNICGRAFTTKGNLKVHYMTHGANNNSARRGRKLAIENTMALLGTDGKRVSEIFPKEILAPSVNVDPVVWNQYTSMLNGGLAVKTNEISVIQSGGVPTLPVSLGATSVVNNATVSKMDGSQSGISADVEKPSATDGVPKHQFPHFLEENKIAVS
# Method: universal PBM
# Molecule type: double-stranded DNA, one strand shown
# Sample: in vitro
# Tested at: 600 nM
# Setting: 8-mer, flanks averaged, mean of replicates
# Direction: higher = stronger binding
Oligonucleotide,E-score
AGTCCTAA,0.101
AGCCCAAC,-0.18
ATCCGAAA,0.0455
ACTGTTAC,0.0844
ACAGTAGG,-0.0554
CACATAGC,-0.121
TATTGTAA,0.34
ACGCTGGA,-0.184
GACTACTA,0.127
GATTGATA,0.237
CAGCATGG,-0.166
ACACTCAC,0.0702
GCACCCCC,-0.36
AGAATGTG,0.00417
AACCCACA,0.0895
CAGCCTTC,-0.24
ACAGTAAA,0.289
ATCCAAGA,0.142
GCCACAGC,-0.283
AGCTGTTA,0.059
CGTCCCCC,-0.277

# Excerpt of the above (set 2):
Oligonucleotide,E-score
CGCGTAAC,-0.0996
ATCCACTC,0.0501
TTCTCCAA,0.169
CTCTTCCC,-0.0999
CTGAGCAG,0.0562
